Assay results pooled from the literature.
Parts stem from different laboratories: compare values within a part only.
Chain of UniProt P61075 (whole entry, looked up): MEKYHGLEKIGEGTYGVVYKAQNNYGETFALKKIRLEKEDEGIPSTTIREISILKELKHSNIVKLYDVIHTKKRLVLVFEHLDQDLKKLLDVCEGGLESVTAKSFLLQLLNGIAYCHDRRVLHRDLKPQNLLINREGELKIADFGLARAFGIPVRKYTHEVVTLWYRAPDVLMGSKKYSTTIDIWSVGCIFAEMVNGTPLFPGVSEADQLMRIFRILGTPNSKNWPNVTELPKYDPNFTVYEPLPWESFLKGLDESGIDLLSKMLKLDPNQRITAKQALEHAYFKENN

Block 1 — method: protein-binding microarray; form: double-stranded DNA, one strand shown; sample: in vitro; tested at: 250 nM; notes: 60-bp whole probe; with: salmon DNA 0.4 mg/ml; baseline: random background probes; direction: higher = stronger binding; all sequences stand within: GCCTAGCAC … GTCTTGATTCGCTTGACGCTGCTG
Target: Interferon regulatory factor 5, full length, phosphomimetic (IRF5, Homo sapiens, UniProt Q13568-2, residues 1-514, K96S/S451D/S453D/S456D/S462D)
Sequence	log fluorescence
TCAAAAATCATTTTCTCACTGTGCTAG	1.05 z-score
TTAGGTCTCGGACTTGGTTAGTGCTAG	-0.334 z-score
GACGTTATCGACACTGGGGACGTGCTA	1.47 z-score
TTAGATATCAGTATTGATTAGTGCTAG	1.64 z-score
TCAAGTTTCACTTTCCAACTGTGCTAG	7.33 z-score
GACGGTCTCGGTTTCGGCACGTGCTAG	3.52 z-score
TTAGAACTGAGTATCGATGAGTGCTAG	4.66 z-score
TTAGGTTTCAGTCTCGATTAGTGCTAG	4.67 z-score

Block 2 — method: protein-binding microarray; form: double-stranded DNA, one strand shown; sample: in vitro; tested at: not given; direction: higher = stronger binding
Target: Hepatocyte nuclear factor 3-beta, forkhead domain (FOXA2, Homo sapiens, UniProt Q9Y261, residues 142-269)
Notes: k-mer, scored over probes, only values ≥0.25
Residues (chain): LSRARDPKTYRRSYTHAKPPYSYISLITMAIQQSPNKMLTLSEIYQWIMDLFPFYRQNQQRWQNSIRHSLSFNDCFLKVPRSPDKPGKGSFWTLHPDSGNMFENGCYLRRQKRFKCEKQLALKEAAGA
Sequence	E-score
ATTTATAG	0.274
ATCATAAG	0.265
TATGTGGA	0.306
ATTCAGTA	0.252
ACATTTAT	0.269
GATTGATA	0.301
AAATACTA	0.296
ATCATGTA	0.256

Block 3 — observed: peptide-MHC binding; form: peptide; tested at: concentration not given
Target: HLA class I histocompatibility antigen, C alpha chain, allele C*04:01 (Homo sapiens, UniProt P10321)
Molecule	binding
RENHTEGLL	inactive
YYKKTFSAL	inactive
HASHYTIPW	inactive
FADINGKLY	inactive

Other studies, line by line
Substance	target	assay	test system	conditions	how to read	quantity	result
QKKAKARAFTISDSGY	human cyclin A2	peptide binding, competitive growth sequencing	peptide, Saccharomyces cerevisiae, cyclin A2-Cln2 fusion strain	concentration not given, peptide tiling library	baseline: unfused Cln2 strain, direction not given	binding score	-0.634
O=C(O)[C@H]1[C@H](Cn2nnc3ccccc3c2=O)CC[C@@H]1C(=O)c1ccc(OCCC2CCOCC2)cc1	Cyclin-dependent kinase 2 homolog (CRK2, Plasmodium falciparum, UniProt P61075)	cell-free assay, competition with immobilised ligand	–	1 µM	–	remaining binding	91%

A few entries again (other studies, line by line):
Substance	target	assay	test system	conditions	how to read	quantity	result
QKKAKARAFTISDSGY	human cyclin A2	peptide binding, competitive growth sequencing	peptide, Saccharomyces cerevisiae, cyclin A2-Cln2 fusion strain	concentration not given, peptide tiling library	baseline: unfused Cln2 strain, direction not given	binding score	-0.634
O=C(O)[C@H]1[C@H](Cn2nnc3ccccc3c2=O)CC[C@@H]1C(=O)c1ccc(OCCC2CCOCC2)cc1	Cyclin-dependent kinase 2 homolog (CRK2, Plasmodium falciparum, UniProt P61075)	cell-free assay, competition with immobilised ligand	–	1 µM	–	remaining binding	91%
